Assay results from different studies.
Each line is one published result; not all experiments were run side by side. Numbers after ± are the reported error.
U2AF2: U2AF2 148-342 (Homo sapiens, UniProt P26368)
B1: tas3 380-549 (Schizosaccharomyces pombe, UniProt O94687); sequence looked up; chain GAHFHLGNANDFNMQGSSRKRKASDRQRESRENELPTKKLNASDSHNPLASLTTDKNDLYINWLKSLSFFQTNSSCAEALVKVIPHYHNKLIDFSQVLQLVFSASEKFPIQENQPLPEQLMFLSNLEKQTPFAKAVGSSIYKLVTGKNLSLDFASQILKEASILEHKNEK
B2: Teth514_1788 2-296 (Thermoanaerobacter sp. X514, UniProt B0K2C2); chain IKLKRLSDKPVLMPKAENEWERAAVFNTAAIYDNGLFHLIYRATDIGPHAKYGKYISRLGYAVSKDGINFMRLDKPVMSNETEQELRGLEDPRIVKIDGIYYMMYTGFGDRFQDDYRICLATSKNLIDWERKGVVLDEPNKDASLFPEKINGKYVMLHRRYPDIWIAFSDDLKNWYDHKPILKPIPNTWESARVGIGGPPIKTKDGWFLIYHAADDNNVYRLGAVLLDLEDPSKVIARQKEPILEPELGWEKEGYIPNVVFSCGNAVKDDTIYVYYGGADTVIGVAILEMKDIKF
B3: bcsG (Escherichia coli, UniProt P37659); chain MTQFTQNTAMPSSLWQYWRGLSGWNFYFLVKFGLLWAGYLNFHPLLNLVFAAFLLMPLPRYSLHRLRHWIALPIGFALFWHDTWLPGPESIMSQGSQVAGFSTDYLIDLVTRFINWQMIGAIFVLLVAWLFLSQWIRITVFVVAILLWLNVLTLAGPSFSLWPAGQPTTTVTTTGGNAAATVAATGGAPVVGDMPAQTAPPTTANLNAWLNNFYNAEAKRKSTFPSSLPADAQPFELLVINICSLSWSDIEAAGLMSHPLWSHFDIEFKNFNSATSYSGPAAIRLLRASCGQTSHTNLYQPANNDCYLFDNLSKLGFTQHLMMGHNGQFGGFLKEVRENGGMQSELMDQTNLPVILLGFDGSPVYDDTAVLNRWLDVTEKDKNSRSATFYNTLPLHDGNHYPGVSKTADYKARAQKFFDELDAFFTELEKSGRKVMVVVVPEHGGALKGDRMQVSGLRDIPSPSITDVPVGVKFFGMKAPHQGAPIVIEQPSSFLAISDLVVRVLDGKIFTEDNVDWKKLTSGLPQTAPVSENSNAVVIQYQDKPYVRLNGGDWVPYPQ
B4: ZTL 29-165 G46A/G80R (Arabidopsis thaliana, UniProt Q94BT6); sequence looked up; chain GGPIPYPVGNLLHTAPCAFVVTDAVEPDQPIIYVNTVFEMVTGYRAEEVLGRNCRFLQCRGPFAKRRHPLVDSMVVSEIRKCIDEGIEFQGELLNFRKDGSPLMNRLRLTPIYGDDDTITHIIGIQFFIETDIDLGP
B5: ACAT1 35-427 Y90F (Homo sapiens, UniProt P24752); pY407; chain SKPTLKEVVIVSATRTPIGSFLGSLSLLPATKLGSIAIQGAIEKAGIPKEEVKEAFMGNVLQGGEGQAPTRQAVLGAGLPISTPCTTINKVCASGMKAIMMASQSLMCGHQDVMVAGGMESMSNVPYVMNRGSTPYGGVKLEDLIVKDGLTDVYNKIHMGSCAENTAKKLNIARNEQDAYAINSYTRSKAAWEAGKFGNEVIPVTVTVKGQPDVVVKEDEEYKRVDFSKVPKLKTVFQKENGTVTAANASTLNDGAAALVLMTADAAKRLNVTPLARIVAFADAAVEPIDFPIAPVYAASMVLKDVGLKKEDIAMWEVNEAFSLVVLANIKMLEIDPQKVNINGGAVSLGHPIGMSGARIVGHLTHALKQGEYGLASICNGGGGASAMLIQKL
B6: GET3 (Saccharomyces cerevisiae, UniProt Q12154); NEM-alkylated cysteines; sequence looked up; chain MDLTVEPNLHSLITSTTHKWIFVGGKGGVGKTTSSCSIAIQMALSQPNKQFLLISTDPAHNLSDAFGEKFGKDARKVTGMNNLSCMEIDPSAALKDMNDMAVSRANNNGSDGQGDDLGSLLQGGALADLTGSIPGIDEALSFMEVMKHIKRQEQGEGETFDTVIFDTAPTGHTLRFLQLPNTLSKLLEKFGEITNKLGPMLNSFMGAGNVDISGKLNELKANVETIRQQFTDPDLTTFVCVCISEFLSLYETERLIQELISYDMDVNSIIVNQLLFAENDQEHNCKRCQARWKMQKKYLDQIDELYEDFHVVKMPLCAGEIRGLNNLTKFSQFLNKEYNPITDGKVIYELEDKE
B7: Tln1 2137-2541 (Mus musculus, UniProt P26039); chain DEATKGTRALEATTEHIRQELAVFCSPEPPAKTSTPEDFIRMTKGITMATAKAVAAGNSCRQEDVIATANLSRRAIADMLRACKEAAFHPEVAPDVRLRALHYGRECANGYLELLDHVLLTLQKPNPDLKQQLTGHSKRVAGSVTELIQAAEAMKGTEWVDPEDPTVIAENELLGAAAAIEAAAKKLEQLKPRAKPKEADESLNFEEQILEAAKSIAAATSALVKAASAAQRELVAQGKVGAIPANALDDGQWSQGLISAARMVAAATNNLCEAANAAVQGHASQEKLISSAKQVAASTAQLLVACKVKADQDSEAMKRLQAAGNAVKRASDNLVKAAQKAAAFEDQENETVVVKEKMVGGIAQIIAAQEEMLRKERELEEARKKLAQIRQQQYKFLPSELRDEH
B8: dnaD 1-128 (Bacillus subtilis, UniProt P39787); chain GSHMKKQQFIDMQEQGTSTIPNLLLTHYKQLGLNETELILLLKIKMHLEKGSYFPTPNQLQEGMSISVEECTNRLRMFIQKGFLFIEECEDQNGIKFEKYSLQPLWGKLYEYIQLAQNQTQERKAEGEQKS
B9: PF1070 1-140 W108A (Pyrococcus furiosus, UniProt Q8U1Y4); sequence looked up; chain MPSSSKSDFSFSTLIIPQHYLRAILKVVSSSSVEVCGFLFGKENRVLKVRFIRNRLNSPVEFEMDPEEMLKALEEAEQENLEVVGIFHSHIACPPIPSGKDLEGMKRAPVIWLIVNEKGEYKAWILSEKNKISEVKIVVE
B10: ilvA 335-514 (Escherichia coli, UniProt P04968); sequence looked up; chain EQREALLAVTIPEEKGSFLKFCQLLGGRSVTEFNYRFADAKNACIFVGVRLSRGLEERKEILQMLNDGGYSVVDLSDDEMAKLHVRYMVGGRPSHPLQERLYSFEFPESPGALLRFLNTLGTYWNISLFHYRSHGTDYGRVLAAFELGDHEPDFETRLNELGYDCHDETNNPAFRFFLAG
B11: human hnRNP R; sequence looked up; chain ANQVNGNAVQLKEEEEPMDTSSVTHTEHYKTLIEAGLPQKVAERLDEIFQTGLVAYVDLDERAIDALREFNEEGALSVLQQFKESDLSHVQNKSAFLCGVMKTYRQREKQGSKVQESTKGPDEAKIKALLERTGYTLDVTTGQRKYGGPPPDSVYSGVQPGIGTEVFVGKIPRDLYEDELVPLFEKAGPIWDLRLMMDPLSGQNRGYAFITFCGKEAAQEAVKLCDSYEIRPGKHLGVCISVANNRLFVGSIPKNKTKENILEEFSKVTEGLVDVILYHQPDDKKKNRGFCFLEYEDHKSAAQARRRLMSGKVKVWGNVVTVEWADPVEEPDPEVMAKVKVLFVRNLATTVTEEILEKSFSEFGKLERVKKLKDYAFVHFEDRGAAVKAMDEMNGKEIEGEEIEIVLAKPPDKKRKERQAARQASRSTAYEDYYYHPPPRMPPPIRGRGRGGGRGGYGYPPDYYGYEDYYDDYYGYDYHDYRGGYEDPYYGYDDGYAVRGRGGGRGGRGAPPPPRGRGAPPPRGRAGYSQRGAPLGPPRGSRGGRGGPAQQQRGRGSRGSRGNRGGNVGGKRKADGYNQPDSKRRQTNNQQNWGSQPIAQQPLQQGGDYSGNYGYNNDNQEFYQDTYGQQWK
B12: PALB2 1-400 (Homo sapiens, UniProt Q86YC2); sequence looked up; chain MDEPPGKPLSCEEKEKLKEKLAFLKREYSKTLARLQRAQRAEKIKHSIKKTVEEQDCLSQQDLSPQLKHSEPKNKICVYDKLHIKTHLDEETGEKTSITLDVGPESFNPGDGPGGLPIQRTDDTQEHFPHRVSDPSGEQKQKLPSRRKKQQKRTFISQERDCVFGTDSLRLSGKRLKEQEEISSKNPARSPVTEIRTHLLSLKSELPDSPEPVTEINEDSVLIPPTAQPEKGVDTFLRRPNFTRATTVPLQTLSDSGSSQHLEHIPPKGSSELTTHDLKNIRFTSPVSLEAQGKKMTVSTDNLLVNKAISKSGQLPTSSNLEANISCSLNELTYNNLPANENQNLKEQNQTEKSLKSPSDTLDGRNENLQESEILSQPKSLSLEATSPLSAEKHSCTVPE
B13: ABCG25 1-662 (Arabidopsis thaliana, UniProt Q84TH5); chain MSAFDGVENQMNGPDSSPRLSQDPREPRSLLSSSCFPITLKFVDVCYRVKIHGMSNDSCNIKKLLGLKQKPSDETRSTEERTILSGVTGMISPGEFMAVLGPSGSGKSTLLNAVAGRLHGSNLTGKILINDGKITKQTLKRTGFVAQDDLLYPHLTVRETLVFVALLRLPRSLTRDVKLRAAESVISELGLTKCENTVVGNTFIRGISGGERKRVSIAHELLINPSLLVLDEPTSGLDATAALRLVQTLAGLAHGKGKTVVTSIHQPSSRVFQMFDTVLLLSEGKCLFVGKGRDAMAYFESVGFSPAFPMNPADFLLDLANGVCQTDGVTEREKPNVRQTLVTAYDTLLAPQVKTCIEVSHFPQDNARFVKTRVNGGGITTCIATWFSQLCILLHRLLKERRHESFDLLRIFQVVAASILCGLMWWHSDYRDVHDRLGLLFFISIFWGVLPSFNAVFTFPQERAIFTRERASGMYTLSSYFMAHVLGSLSMELVLPASFLTFTYWMVYLRPGIVPFLLTLSVLLLYVLASQGLGLALGAAIMDAKKASTIVTVTMLAFVLTGGYYVNKVPSGMVWMKYVSTTFYCYRLLVAIQYGSGEEILRMLGCDSKGKQGASAATSAGCRFVEEEVIGDVGMWTSVGVLFLMFFGYRVLAYLALRRIKH
B14: EndoA D265R (Drosophila melanogaster, UniProt Q8T390); sequence looked up; chain MAFAGLKKQINKANQYMTEKMGGAEGTKLDMDFMEMERKTDVTVELVEELQLKTKEFLQPNPTARAKMAAVKGISKLSGQAKSNTYPQPEGLLAECMLTYGKKLGEDNSVFAQALVEFGEALKQMADVKYSLDDNIKQNFLEPLHHMQTKDLKEVMHHRKKLQGRRLDFDCKRRRQAKDDEIRGAEDKFGESLQLAQVGMFNLLENDTEHVSQLVTFAEALYDFHSQCADVLRGLQETLQEKRSEAESRPRNEFVPKTLLDLNLRGGGGGLNEDGTPSHISSSASPLPSPMRSPAKSMAVTPQRQQQPCCQALYDFEPENPGELAFKENDIITLLNRVDDNWFEGAVNGRTGYFPQSYVQVQVPLPNGN
B15: AGR2 41-175 (Homo sapiens, UniProt O95994); sequence looked up; chain PQTLSRGWGDQLIWTQTYEEALYKSKTSNKPLMIIHHLDECPHSQALKKVFAENKEIQKLAEQFVLLNLVYETTDKHLSPDGQYVPRIMFVDPSLTVRADITGRYSNRLYAYEPADTALLLDNMKKALKLLKTEL

Substance | target or system | assay | test system | setting | how to read | endpoint | value
B1 (tas3 380-549) | itself | SEC |  |  |  | subunits per oligomer | 3
B2 (Teth514_1788 2-296) | itself | crystal structure |  |  |  | subunits per oligomer | 2
human filamin C | PP6C (human) | co-immunoprecipitation, IP-MS | CYB5R4 knockout cells | concentration not given | baseline: CYB5R4 knockout over parental | log2 fold change | -0.26
B3 (bcsG) | itself | cryo-EM |  |  |  | subunits per oligomer | 3
B4 (ZTL 29-165 G46A/G80R) | itself | SEC-SAXS |  |  |  | subunits per oligomer | 2
B5 (ACAT1 35-427 Y90F) | itself | native gel |  | Y90F mutant |  | subunits per oligomer | 4
DNA 1 AAATCTTTTCTTTTTTCCATTCATTCATTAAATTTTCAATTCAATCGGTCC / DNA 2 GGACCGATTGACTTGAAAATTTAATGAATGAATGGAAAAAAGAAAAGATTT (dsDNA; 5'-amino-C6 primer) | SPT15 full length assumed (Saccharomyces cerevisiae, UniProt P13393) | array | double-stranded DNA | TBP alone |  | Kd | 0.0148 ± 0.00072 µM
B6 (GET3) | itself | SEC |  |  |  | subunits per oligomer | > 4
B7 (Tln1 2137-2541) | itself | SEC-MALS |  |  |  | subunits per oligomer | 2
KCNC1 (Homo sapiens, UniProt P48547) | itself | cryo-EM |  |  |  | subunits per oligomer | 4
B8 (dnaD 1-128) | itself | SEC |  |  |  | subunits per oligomer | 4
B9 (PF1070 1-140 W108A) | itself | SEC |  |  |  | subunits per oligomer | 2
B10 (ilvA 335-514) | itself | SEC |  |  |  | subunits per oligomer | 2
GUUUCCCUA (ssRNA) | U2AF2 | sequencing of bound RNA | RNA | motif only |  | Kd | 2.75 µM
B11 (human hnRNP R) | CYB5R4 knockout human cells | PP4 interaction, 3xFLAG-PP4C IP-MS |  | concentration not given | baseline: CYB5R4 KO over parental | log2 fold change | 0.22
B12 (PALB2 1-400) | itself | mass photometry |  |  |  | subunits per oligomer | 2
UUUGUAAUU (ssRNA) | U2AF2 | sequencing of bound RNA | RNA | motif only |  | Kd | 9 µM
B13 (ABCG25 1-662) | itself | cryo-EM |  |  |  | subunits per oligomer | 2
MYOC, N-linked glycans (Homo sapiens, UniProt Q99972) | itself | cross-linking |  |  |  | subunits per oligomer | 8
P2RX4 (Homo sapiens, UniProt Q99571) | itself | cryo-EM |  |  |  | subunits per oligomer | 3
B14 (EndoA D265R) | itself | SEC-SAXS |  |  |  | subunits per oligomer | 2
B15 (AGR2 41-175) | itself | SEC |  |  |  | subunits per oligomer | 2

Some of these lines once more:
Substance | target or system | assay | test system | setting | how to read | endpoint | value
B6 (GET3) | itself | SEC |  |  |  | subunits per oligomer | > 4
